Published values pooled from the literature.
Parts stem from different laboratories: compare values within a part only.

Set 1 — method: protein binding microarray; form: double-stranded DNA, one strand shown; sample: in vitro; tested at: not given; relative to: not given; reading: higher = stronger binding; quantity: E-score
Target: Histone acetyltransferase KAT6A, winged helix 1, GST fusion (KAT6A, Homo sapiens, UniProt Q92794, residues 1-85)
Setting: 8-mer, flanks averaged, mean of 2 arrays, mostly near background
Target sequence (chain): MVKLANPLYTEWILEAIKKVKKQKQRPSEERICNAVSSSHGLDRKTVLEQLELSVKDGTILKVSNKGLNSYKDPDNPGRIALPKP
ACGGCGCT: 0.425
GTAGTGTA: -0.0699
ACGGACTG: 0.0561
CTGTATTC: -0.187
TCAGTAAA: -0.00453
CAGCCGAA: 0.0126
ATAACCTG: -0.251
AGAAGATA: 0.0452
AACTAACG: 0.125
GACAGCCA: -0.0859
CGCTGGGA: -0.0302
AATCCTAG: -0.215
CAGACAAC: -0.158
CGTCTGTC: 0.117
GAAAGTTA: -0.151
CATTGCGG: 0.246

Set 2 — method: RNA Bind-n-Seq; form: RNA; sample: in vitro; tested at: not given; relative to: input RNA pool; reading: higher = stronger binding; quantity: bound/input enrichment
Target: RING finger protein unkempt homolog, zinc fingers 1-6, GST-SBP tag (UNK, Homo sapiens, UniProt Q9C0B0, residues 30-357)
Setting: RNA with constant flanks, human-mouse chimeric sites, ends assumed
Target sequence (chain): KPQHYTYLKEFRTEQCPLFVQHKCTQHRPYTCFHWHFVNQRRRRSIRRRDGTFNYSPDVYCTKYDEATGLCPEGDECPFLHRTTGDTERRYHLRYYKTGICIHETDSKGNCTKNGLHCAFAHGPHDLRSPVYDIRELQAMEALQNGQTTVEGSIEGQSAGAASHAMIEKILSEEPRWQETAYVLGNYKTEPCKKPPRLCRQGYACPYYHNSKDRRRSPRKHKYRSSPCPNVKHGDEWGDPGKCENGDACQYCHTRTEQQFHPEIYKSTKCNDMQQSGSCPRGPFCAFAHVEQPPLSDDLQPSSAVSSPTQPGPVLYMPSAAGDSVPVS
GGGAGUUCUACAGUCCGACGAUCCUGAGGAUACCACUGAAGAGACCUUAAAAGAAUCAUUUGAGGGCUCUGUUCGUGCAAGAAUAGUCACUGAUCGGGAAACUGGUUCUUUCCAAAGGGUUGGUUUUGUAAGACUUCAACGUGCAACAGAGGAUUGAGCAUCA: 0.175 ratio
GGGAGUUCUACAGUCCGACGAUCCGCUUGGAUGAGGCGGGUGUCACAGAUGAAGUGCUAGAUUCUGCCAUGCAAGCCUUCCUUCUGGAGGUCAUUGUUAAACAUGGGGAGCCAGCCCCUUAUUUAUGUAAUAAAGAUCCUUUUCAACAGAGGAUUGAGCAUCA: 0.194 ratio
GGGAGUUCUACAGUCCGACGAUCAGAGCCCAGGAUGUUGAUGCUACAAAUCCAAAUUACGAAAUUAUGUGUAUGAUCAGAGACUUUAGAGGAAGUUUGGAUUACAGACCCCUAACAACAGCAGAUCCUAUUGAUGAACAUAGGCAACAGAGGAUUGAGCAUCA: 0.452 ratio
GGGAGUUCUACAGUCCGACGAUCGUCAACAGCUGCCUCAACCCCAUCCUCUAUGCUUUCUUGGAUGAGAACUUCAAGGCCUGCUUCCGCAAGUUCUGCUGUGCAUCUGCCCUGCGCCGGGACGUGCAGGUUUCUGAUCGUGUGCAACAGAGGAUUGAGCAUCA: 0.322 ratio
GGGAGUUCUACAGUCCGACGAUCCUGUGUGUGCUGAAUAAAUGGCUUGUAAAGAAGUUUUUCCAAGCUGUAACCCAUGCUGUUAUUAUAGUUGCUGCAAAAUGUUCUUCCUGAUAUUGAUGUUUGUUUACCUGACUCUCCCUCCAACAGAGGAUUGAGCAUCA: 0.435 ratio
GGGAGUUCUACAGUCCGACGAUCUAUAAUAAUCAUGAAAUUCGUUCCGGGAAACAUAUUGGUGUCUGCAUCUCAGUUGCCAACAAUAGGCUUUUUGUGGGCUCGAUUCCUAAGAGUAAAACCAAGGAACAGAUUCUUGAGGAACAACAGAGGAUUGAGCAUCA: 1.94 ratio
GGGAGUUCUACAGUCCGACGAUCCGCCUGGAUGAGGCGGGUGUCACAGAUGAAGUGCUAGAUUCUGCCAUGCAAGCCUUCCUUCUGGAGGUCAUUGUUAAACAUGGGGAGCCGGCACCUUAUUUAUGUAAUAAAGAUCCUUUUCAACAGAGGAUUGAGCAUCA: 0.0836 ratio
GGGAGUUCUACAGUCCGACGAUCGGUGGGGUGGUCAUUGCGCCAAUUGAGGCUGAUUUUCAUGAGUCGCCUUCAAAACUCUCGUGUAGGGUUGACAAUGUGGGGGGGUGGGGGAUCCAGCUAUUUUUUUUAUUUUCAAGUCCACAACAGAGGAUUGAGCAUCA: 6.26 ratio
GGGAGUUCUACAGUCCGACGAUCGUGCCCUUCUCGCUGCUGCGGAGCCCGAGCUGGGAACCAUUCCGGGACUGGUACCCUGCACACAGCCGCCUCUUCGAUCAAGCUUUCGGGCUGCCCCGGUUGCCCGAGGAGUGGUCGCAGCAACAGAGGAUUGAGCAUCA: 0.0613 ratio
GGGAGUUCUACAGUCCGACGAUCAUUCCGAUUAUGGACACCGGUGAAAACCCAGAGGUGCCCUUCCCCCGGGACAUGAUCGACUUAGAGGCCAAUUUUGAGAAGAUUGAAAAUGAACUGAAGGAAAUCAACACAAACCAGGAACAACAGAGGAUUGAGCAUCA: 0.169 ratio
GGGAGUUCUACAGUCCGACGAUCUCUUUAAAUGCACUACAACCUUUUCUGACAGUGCUUUCCCUCCCAUAGAUCCACGUUCACACUAGAAGAGCAAAGGCUUUGCACGGAGCUCAAACAUCUGAUGAAGAAAGAUUUCUGAGACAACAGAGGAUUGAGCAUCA: 0.837 ratio

Set 3 — method: RNA Bind-n-Seq; form: RNA; sample: in vitro; tested at: 365 nM; relative to: no-protein control; reading: higher = stronger binding; quantity: RBNS enrichment (R)
Target: RNA binding protein fox-1 homolog 2, RRM domain, GST-SBP tag (RBFOX2, Homo sapiens, UniProt O43251-10, residues 100-194)
Setting: natural RNA segment, single round, ends assumed
Target sequence (chain): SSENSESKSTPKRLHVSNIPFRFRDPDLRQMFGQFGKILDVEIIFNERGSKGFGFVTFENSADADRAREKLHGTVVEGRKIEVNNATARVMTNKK
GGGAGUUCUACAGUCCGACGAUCCUUCUUUGAAUUAAGUGGACUGUGGCAUGACAUUCUGCAAUAUUUUGCUGAAUUGAACACUAUUGUGUCUUAAAUACUUGCACUAAAAAAGUGCACUGCAAGGCCAGAAAUGGAAUUCUCGGGUGCCAA: 0.377
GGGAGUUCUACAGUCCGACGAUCGGAGAAAGGACUAGGGGAAGUAUCUUUCUGGAUGCUUGUGGUCCCAGAAGGGUACUUUCUGUGUCAUACCAUGCCACUUCUUUAAGCUCUUCAGGGCAGCCAAAGCCAGCUGGAAUUCUCGGGUGCCAA: 1.14
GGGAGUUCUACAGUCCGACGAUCUUUAUUUUUAAGUUACCAGGCACUUUUCAUGCUAUUUAAGACUAUAUAUCAAAUUGUGCACUUUAAAUAUGUGCAAUUUGUUGUACAUCAGUGAUACCUCAAUAAAUCUGUGGAAUUCUCGGGUGCCAA: 0.281
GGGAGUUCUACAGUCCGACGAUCUCCUUUGAAAAUCCAAUAGAAGGUUAAUAGUAUUCACACACAGGUCUAGGCAGGGUUUUAAACAUAUUCCCCAUCAGUUUUUAGGUUAACAUAUACUUGCUAUAGCUAAUUGGAAUUCUCGGGUGCCAA: 0.554
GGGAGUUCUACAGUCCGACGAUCUGGAGAGGGCCAGUGCUGCCACUGGUGUGGGGGUCAUUCUUGUGCACCCCCUACUGUGUGCUCCUCUUGUGCACCUACUGUGUGCUUCUUCCGGGGCUUGUUGCCAUUCCUGGAAUUCUCGGGUGCCAA: 0.438
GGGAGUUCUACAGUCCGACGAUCACUUGGUCUUCUGUGUUCUAGAGAACAGCACUGCUCUGACAAGUGAAUUCUUGAUAAAUGGCUAAUGCUUUUCUCUCACACUGCUAAUCUUUGGAUGGAAACCAUUCUUUUGGAAUUCUCGGGUGCCAA: 0.261
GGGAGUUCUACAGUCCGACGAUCUACCUGAAGUCAGUGGCCUGGAUCAUAGCCCUGGAUCAUUUCCCAGUCUGUCCUGUGCUGUGUGACCUUGGACAAGGCGCUUCAUCUCUCUGGGCCUCUAUUUCUCCAUUUGGAAUUCUCGGGUGCCAA: 0.326
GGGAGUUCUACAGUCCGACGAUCUGGGCGGGGUUCCAAGGCCUGCGAGCUGGGAAAGGACAGAUGAGGGGACCUCGUGCCUUCUUGCUGUCAUGCAAUGACCCCGCCUUAUGUUGCCGAAAUAAGCAACUCUUUGGAAUUCUCGGGUGCCAA: 0.295
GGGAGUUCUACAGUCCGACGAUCCAACCUCUGCCCCCUCCUCCCAGAGCAGAUGGGGUCUGGAUGGGGAGCAGAGGGCACCCCAGGCCCUUCUUGCUCCACAGUCCCCCGCCCGCAGCAUACUCCACUCAUAAUGGAAUUCUCGGGUGCCAA: 0.357
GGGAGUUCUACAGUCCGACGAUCGGCCGCUGUAUCCAUGGUGAUGGGGUGAGGUUUUGGCCAAAAGGCCAAAGACUGGUGGUGGGUCCACGGAAUCUGCCCUGUGACAUGAAAGGCUUUGAGGGGCUCUGGCUUGGAAUUCUCGGGUGCCAA: 0.607
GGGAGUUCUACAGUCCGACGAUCAGAUUUAUUCCCUUGUGUCAGGCCAAAGAAGUUCUUACAAAGUACAGUGGGUAGUGUCUAAAGCGACACUUUACUCACAGCCUGGCUUGAGUCAACAGGAACACCAUAGCUGGAAUUCUCGGGUGCCAA: 0.197
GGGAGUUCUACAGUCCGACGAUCCCCCGCCGCUUCCCCCACACGCUUGCUCGGCGCUCUGACUUCUAGGAGCACAAGAGAGGAGCCUGUGGCCCCAUGCAGAUGAAAAGGACGGGCAGGGUCUCCUGAGCAGCUGGAAUUCUCGGGUGCCAA: 1.74

Set 4 — method: competition protein-binding microarray; form: double-stranded DNA, one strand shown; sample: in vitro; tested at: 2 µM; together with: Pho4 competitor, 0.05 µM; reading: higher = stronger binding; quantity: fluorescence intensity
Target: Centromere-binding protein 1, full length, His-tagged (CBF1, Saccharomyces cerevisiae, UniProt P17106, residues 1-351)
Chain of UniProt P17106 (whole entry, looked up): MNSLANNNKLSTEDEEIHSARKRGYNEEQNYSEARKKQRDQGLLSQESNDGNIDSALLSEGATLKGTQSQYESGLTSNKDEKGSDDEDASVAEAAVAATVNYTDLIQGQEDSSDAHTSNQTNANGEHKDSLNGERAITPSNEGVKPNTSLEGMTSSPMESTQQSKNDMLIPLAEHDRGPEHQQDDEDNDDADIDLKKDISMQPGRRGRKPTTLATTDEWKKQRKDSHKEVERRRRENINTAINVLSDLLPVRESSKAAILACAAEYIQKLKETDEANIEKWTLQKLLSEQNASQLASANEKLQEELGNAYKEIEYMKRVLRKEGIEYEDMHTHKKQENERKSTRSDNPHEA
Setting: whole 60-bp probe, lowest competitor level
AAGATCTAGGCCCATCACGCAGGCAGTTACTGAGAAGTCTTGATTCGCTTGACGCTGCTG: 84.1 a.u.
GTATAAAAAGAGTGGCATGTGAACTGCCTACCGTAAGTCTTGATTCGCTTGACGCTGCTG: 119 a.u.
GGTTGCGAGAGAAGAGGCGTGTCGGAAAAAAAAACGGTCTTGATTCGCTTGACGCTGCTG: 83.2 a.u.
GTCTTGTCTCATTGAGCTGTGGGTGTCCCCACTTCAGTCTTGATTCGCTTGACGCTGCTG: 62.6 a.u.
AAATGCCGCTTAGAGAACGTGGAAGAAGAGTTTGATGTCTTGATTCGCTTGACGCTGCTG: 72.6 a.u.
TATCCGGACATTTTTCCCGTGATGGAATTGGCATCCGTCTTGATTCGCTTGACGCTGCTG: 146 a.u.
CTTTCCCGATCTTGTCTCGTGGGTGTAGCACATTTGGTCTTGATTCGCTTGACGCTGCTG: 97 a.u.
AAAAAGCAAGGTAGACAGGCGTGGAACGCGGAGTAGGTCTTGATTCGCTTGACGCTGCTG: 68.3 a.u.
CATACCCAACCTTGAGAAGTGGGTGAAGATATTTGTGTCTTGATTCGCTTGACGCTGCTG: 76 a.u.
GTCAATGCCCTAGCAGACGTGCTTTACAAGACTGCCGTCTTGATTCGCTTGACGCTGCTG: 61.6 a.u.
TGAGTTGTCGGGCTCATCGTGCTTTATCAAGTGGTTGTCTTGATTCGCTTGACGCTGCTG: 66.9 a.u.
TCACTGAACTTCTGTGACCTGCGAGGACCAAGATCAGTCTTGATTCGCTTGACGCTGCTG: 72.4 a.u.
CCGACGTCGGAGAGGCAGGTGATGTTCGGCTCGGCCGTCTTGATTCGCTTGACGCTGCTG: 69.2 a.u.
AAACAGGGCGGCGTTCCCGTGCGGAAGGTGGTCTGCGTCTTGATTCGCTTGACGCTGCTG: 73.2 a.u.
GCTTGTTCATACAAGCTCGTGTAGCTAAATACGTACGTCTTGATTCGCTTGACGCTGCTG: 95.8 a.u.
GTCTTGTCTCATTGCGCTGTGGGTGTCCCCACTTCAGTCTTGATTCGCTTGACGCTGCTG: 83.4 a.u.
CGGGGTTAAGTTTGTCACATCACTTGCTTGCAGCAGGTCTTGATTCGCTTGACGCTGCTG: 69.5 a.u.
AAAGCGGTAATTTGCCTTGTGGGTGCAGATATCTATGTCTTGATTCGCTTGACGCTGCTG: 86 a.u.
GCTAAATCATATTCCAACGTGTAATGAACGTCCTGGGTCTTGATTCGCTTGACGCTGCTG: 95.1 a.u.
CTCGAGGATTGCCTACGCGTGGGACTGATCCACCAAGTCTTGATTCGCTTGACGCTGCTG: 57.8 a.u.
AGTCGTCGTCCGGGACATAGGATCAGGAATCACAATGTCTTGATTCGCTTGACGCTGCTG: 65.6 a.u.
GGGATGGTGATGGTATACGTGGTTACGTCTTTTACAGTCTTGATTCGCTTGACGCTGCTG: 92.1 a.u.
CTAACGAAGGTTTGTCACCTGACTTACAAGCCAAGTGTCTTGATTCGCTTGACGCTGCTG: 1420 a.u.
AACCAGTCTTTCATCACCGTGATGGTAAATTATATAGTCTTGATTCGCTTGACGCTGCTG: 178 a.u.

Excerpt of the above (set 1):
ATAACCTG: -0.251
AATCCTAG: -0.215
CAGCCGAA: 0.0126
CATTGCGG: 0.246
ACGGCGCT: 0.425
GACAGCCA: -0.0859
CGTCTGTC: 0.117
